Published values gathered from unrelated publications.
Each line is one published result; not all experiments were run side by side. ± gives the spread as reported.
Target: Protein deacetylase HDAC6 (HDAC6, Homo sapiens, UniProt Q9UBN7)
Action: inhibitor
One construct used (Q9UBN7 1-1215): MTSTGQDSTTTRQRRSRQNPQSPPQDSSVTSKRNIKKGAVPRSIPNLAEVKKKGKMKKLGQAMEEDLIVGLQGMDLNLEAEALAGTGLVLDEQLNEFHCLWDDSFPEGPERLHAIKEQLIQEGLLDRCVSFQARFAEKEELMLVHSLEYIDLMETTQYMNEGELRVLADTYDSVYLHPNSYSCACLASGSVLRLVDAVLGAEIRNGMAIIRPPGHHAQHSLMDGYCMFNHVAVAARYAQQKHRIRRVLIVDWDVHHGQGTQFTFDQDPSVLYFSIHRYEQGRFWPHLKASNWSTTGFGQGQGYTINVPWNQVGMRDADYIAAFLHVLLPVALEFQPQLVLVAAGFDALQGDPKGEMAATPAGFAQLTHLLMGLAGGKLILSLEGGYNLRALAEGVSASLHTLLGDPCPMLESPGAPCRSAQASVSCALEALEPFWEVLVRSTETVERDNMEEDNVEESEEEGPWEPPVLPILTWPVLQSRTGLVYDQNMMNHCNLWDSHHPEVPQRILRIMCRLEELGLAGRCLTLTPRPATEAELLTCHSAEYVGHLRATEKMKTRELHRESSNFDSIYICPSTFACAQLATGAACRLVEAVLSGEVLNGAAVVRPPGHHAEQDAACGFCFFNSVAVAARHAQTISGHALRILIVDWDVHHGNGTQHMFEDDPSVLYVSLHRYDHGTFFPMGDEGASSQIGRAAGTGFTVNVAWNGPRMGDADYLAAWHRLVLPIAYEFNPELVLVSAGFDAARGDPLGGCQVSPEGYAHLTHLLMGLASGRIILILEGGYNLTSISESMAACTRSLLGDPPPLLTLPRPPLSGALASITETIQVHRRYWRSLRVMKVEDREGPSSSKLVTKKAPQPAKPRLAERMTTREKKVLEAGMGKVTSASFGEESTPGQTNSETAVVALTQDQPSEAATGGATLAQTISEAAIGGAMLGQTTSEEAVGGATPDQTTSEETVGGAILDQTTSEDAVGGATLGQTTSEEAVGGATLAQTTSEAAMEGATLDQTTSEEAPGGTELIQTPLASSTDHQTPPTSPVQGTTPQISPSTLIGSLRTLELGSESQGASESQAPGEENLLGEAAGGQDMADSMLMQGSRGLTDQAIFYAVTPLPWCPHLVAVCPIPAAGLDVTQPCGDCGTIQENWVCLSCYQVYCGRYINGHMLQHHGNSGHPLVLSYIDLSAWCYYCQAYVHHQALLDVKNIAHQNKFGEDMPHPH

SMILES = COCCn1cc(COc2cccc(Cc3cnc(NC(=O)C(C)c4ccc(CC(C)C)cc4)s3)c2)nn1 (stereo not shown); read-out = enzyme activity; technique = fluorescence; IC50 = > 100000 nM
SMILES = O=C(CCCCCCNc1ccc(C(=O)Nc2ccc(Cl)c(NC(=O)c3cccc(Cl)c3)c2)cn1)NO; read-out = enzyme activity; technique = fluorescence; notes = lysate; IC50 = 680 nM
SMILES = O=C(NO)C1=CCCC1; read-out = enzyme activity; technique = fluorescence; IC50 = 455 nM
SMILES = CC(CCC(=O)NCc1ccc(C(=O)NO)cc1)C1CCC2C3C(O)CC4CC(O)CCC4(C)C3CCC12C (stereo not shown); read-out = enzyme activity; technique = fluorescence; IC50 = 58 nM
SMILES = O=c1c2ccccc2sn1-c1ccccc1; read-out = enzyme activity; IC50 = 2890 nM
SMILES = O=C(/C=C/c1ccccc1Cl)NO; read-out = enzyme activity; technique = fluorescence; IC50 = 95 nM
SMILES = Cc1cc(C)nc(SCC(=O)Nc2ncc(Cc3cccc(OCc4cn(Cc5ccc(C#N)cc5)nn4)c3)s2)n1; read-out = enzyme activity; technique = fluorescence; IC50 = > 100000 nM
SMILES = Cc1cc(CNCCCCCC(=O)NO)ccc1OCc1cccc(-c2ccccc2)c1C; IC50 = 67 nM
SMILES = O=C(NO)c1ccc(CN2c3ccccc3Oc3ccc(C(=O)Nc4ccc(C(=O)c5ccccc5)cc4)cc32)cc1; read-out = enzyme activity; IC50 = 155 ± 11 nM
SMILES = O=c1c2ccccc2on1-c1ccccc1; read-out = enzyme activity; IC50 = > 10000 nM
SMILES = COCc1cc2c(cn1)CN(C(=O)Nc1nc(-c3ccc(F)cc3)ccc1N)C2; read-out = deacetylase activity; technique = recombinant enzyme; IC50 = > 30000 nM
SMILES = O=c1[nH]sc2ccccc12; read-out = enzyme activity; IC50 = 3200 nM
SMILES = COCCn1cc2c(n1)CN(C(=O)Nc1nc(-c3ccc(F)cc3F)ccc1N)C2; read-out = deacetylase activity; technique = recombinant enzyme; IC50 = > 30000 nM
SMILES = O=C(CCCCCCC(=O)Nc1ccc(-[c-]2cccc2)cc1)NO.[Fe+2].c1cc[cH-]c1; read-out = enzyme activity; technique = fluorescence; IC50 = 0.09 nM
SMILES = N/C(=N\O)c1ccc2c(c1)N(Cc1ccc(C(=O)NO)cc1)c1ccccc1O2; read-out = enzyme activity; IC50 = 6 nM
SMILES = O=C(/C=C/c1ccc2c(c1)CCN(Cc1ccccc1)C2=O)NO; read-out = enzyme activity; IC50 = 2140 nM
SMILES = CC(CCC(=O)NCc1ccc(C(=O)NCc2ccc(C(=O)NO)cc2)cc1)C1CCC2C3C(O)CC4CC(O)CCC4(C)C3CCC12C (stereo not shown); read-out = enzyme activity; technique = fluorescence; IC50 = 4.26 nM
SMILES = O=C(CCCCCCC(=O)NC[c-]1cccc1)NO.[Fe+2].c1cc[cH-]c1; read-out = enzyme activity; technique = fluorescence; IC50 = 6.7 nM
SMILES = O=c1c2ccccc2[s+]([O-])n1-c1ccccc1 (stereo not shown); read-out = enzyme activity; IC50 = > 10000 nM
SMILES = CN1CCN(C(=O)N(CCCCCCC(=O)NO)c2ccc(-c3ccc4cnn(C)c4c3)cc2)CC1; read-out = enzyme activity; technique = fluorescence; IC50 = 2.62 nM
SMILES = Cc1cc(C)nc(SCC(=O)Nc2ncc(Cc3cccc4ccccc34)s2)n1; read-out = enzyme activity; technique = fluorescence; IC50 = > 100000 nM
SMILES = O=C(NO)c1ccc(CNC(=O)c2ccccc2)cc1; read-out = enzyme activity; technique = fluorescence; IC50 = 25 nM

A few entries again:
SMILES = O=C(CCCCCCC(=O)Nc1ccc(-[c-]2cccc2)cc1)NO.[Fe+2].c1cc[cH-]c1; read-out = enzyme activity; technique = fluorescence; IC50 = 0.09 nM
SMILES = CC(CCC(=O)NCc1ccc(C(=O)NCc2ccc(C(=O)NO)cc2)cc1)C1CCC2C3C(O)CC4CC(O)CCC4(C)C3CCC12C (stereo not shown); read-out = enzyme activity; technique = fluorescence; IC50 = 4.26 nM
